Published values collected from several papers.
“And” joins repeats or separate records; there may be more than shown. ± marks the error that the study gave.

CCN1/C(=C/C(C)=O)Sc2ccc(F)cc21  systolic blood pressure (cynomolgus monkey; oral, 100 mg/kg, 2 h post-dose): 110 ± 5 mmHg
C[C@H]1O[C@@H](O[C@H]2[C@@H](O)C[C@H](O[C@H]3[C@@H](O)C[C@H](O[C@H]4CC[C@@]5(C)[C@H](CC[C@@H]6[C@@H]5C[C@@H](O)[C@]5(C)[C@@H](C7=CC(=O)OC7)CC[C@]65O)C4)O[C@@H]3C)O[C@@H]2C)C[C@H](O)[C@@H]1O  subjects with adverse event (refers to: infections and infestations; healthy men; oral, dose not given, 8 days, treatment-emergent, crossover trial): 0%
CN[C@@H](C)C(=O)N[C@H]1CN(S(=O)(=O)c2cccc(S(=O)(=O)N3CC[C@H]4CC[C@@H](C(=O)NC(c5ccccc5)c5ccccc5)N4C(=O)[C@@H](NC(=O)[C@H](C)NC)C3)c2)CC[C@H]2CC[C@@H](C(=O)NC(c3ccccc3)c3ccccc3)N2C1=O  AUC(0-t) (LC-MS/MS; human, advanced solid tumours, plasma; intravenous, 4 mg weekly, day 15): 102 ± 36.9 ng·h/mL
CC(=O)N[C@H]1CC[C@H](NC(=O)CN2CCN(c3nncc(-c4ccc(C)cc4)n3)CC2)CC1  AUC0-last ratio (healthy human, plasma; oral, 100 mg single dose; relative to: female over male): 1.2
C=CC(=O)NC1CCN(c2ncc3ncnc(Nc4ccc(Oc5ccc6c(c5)ncn6C)c(C)c4)c3n2)CC1  participants with nasopharyngitis (human, male; oral, 240 mg, treatment-emergent adverse event): 6.3%
NC1(C(=O)N[C@@H](CCO)c2ccc(Cl)cc2)CCN(c2ncnc3[nH]ccc23)CC1  geometric mean Cmax (human patients, plasma; 160 mg twice daily, day 8, continuous dosing): 653 ng/mL
Cc1c(-c2ccc(N3CCc4cccc(C(=O)Nc5nc6ccccc6s5)c4C3)nc2C(=O)O)cnn1CC12CC3(C)CC(C)(C1)CC(OCCNCC[C@H](O)CO)(C3)C2  plasma concentration (anaesthetized male beagle dog; iv infusion, 0.3 mg/kg/min, 75 min): 4.58 ng/mL and 1.18 ng/mL
CCO[C@H]1CCN(Cc2c(OC)cc(C)c3[nH]ccc23)[C@H](c2ccc(C(=O)O)cc2)C1  unbound half-life (healthy volunteers, plasma; oral, 200 mg single dose, geometric mean): 14 h
N#C[C@@]1(c2ccc3c(N)ncnn23)O[C@H](CO)[C@@H](O)[C@H]1O  unbound fraction in plasma (rat plasma; 1-100 µM): 0.0589
COc1ccc2c(c1)CN(C(=O)CCN1CCC(Cc3ccccc3)CC1)CC[S@@+]2[O-]  heart rate (telemetry; conscious dog; intravenous, 4 mg/kg, 2 h): 71 ± 14 beats/min
Cc1ccc([C@@H]2O[C@H](CO)[C@@H](O)[C@H](O)[C@H]2O)cc1Cc1ccc(-c2ccc(F)cc2)s1  urinary potassium excretion change (Japanese type 2 diabetes patients; 200 mg, day 3, 24 h urine collection; relative to: baseline): 2.82 mEq
Cl.[2H]C([2H])([2H])CC(=O)c1cnc(NC(=O)C2CC2)cc1Nc1cccc(-c2ncn(C([2H])([2H])[2H])n2)c1OC  Cmax (geometric mean; human; oral, 40 mg twice daily, day 1, fed, liquid, multiple dose): 275 ng/mL
COc1ccc([C@@H](O)c2cc(-c3ncnc4cc(N5CCOCC5)ccc34)c(F)cc2Cl)nn1  drug-related proctitis incidence (locally advanced rectal cancer patients; 50 mg, added: capecitabine and radiotherapy): 100%
O=C(COc1ccc(Cl)cc1)NC12CC(c3nnc([C@H]4C[C@@H](OC(F)(F)F)C4)o3)(C1)C2  participants with TEAE (human both sexes; oral, 145 mg once daily, 14 days): 100%
CCc1c(-c2ccccc2)c(-c2ccccc2)nn1-c1ccccc1-c1cccc(OCC(=O)O)c1  Tlast (Sprague-Dawley rat; intravenous, dose not given): 8 h
CNC(=O)c1ccc(-c2cnc3ncc(Cc4ccc5ncccc5c4)n3n2)cc1F  patients with adverse event (refers to: Nausea, all grades; cancer patients; oral, 600 mg twice daily, other expansion cohort, any causality): 44%
O=c1c(NCCc2cccc(Cl)c2)c(Nc2ccc(Cl)cc2)c1=O  locomotor activity (rat; ip, 5.6 mg/kg): no effect
CCCCCCCOc1ccc(CCC(N)(CO)CO)cc1C(F)(F)F.Cl  tlast (Sprague-Dawley rat, male, plasma; oral, 1 mg/kg): 8 h
COc1ccc2[nH]c([S+]([O-])Cc3ncc(C)c(OC)c3C)nc2c1 (stereo not shown)  t1/2 (healthy Chinese volunteers, CYP2C19 intermediate metabolizers; oral, 20 mg, fasted): 0.99 ± 0.28 h
CCc1cc(C(=O)NC)c2nccc(N3CCc4c(cc(Cn5ccnc5)cc4-c4cn(C)nc4C(F)(F)F)C3=O)c2c1  spleen weight change (Sprague Dawley rat; oral, 100 mg/kg once daily, 7 days; relative to: vehicle): -12.1%
CNCc1ccc(-c2[nH]c3cc(F)cc4c3c2CCNC4=O)cc1  dizziness incidence (human patients; oral, 840 mg twice daily, all grades): 0%
CC(C)n1c(Nc2cccnc2)nc2cnc(Nc3ccc(N4CCN(C)CC4)cc3)nc21  adverse event incidence (refers to: Headache; healthy male subjects; oral, 100 mg, added: itraconazole): 7.1%
O=C(O)CCCCCCCCCCCCCCCCC(=O)O  relative peak deviation (human, plasma; endogenous baseline diurnal; relative to: daily mean concentration): 27.1 ± 3.6%
O=C(N[C@H](Cc1c[nH]c2ccccc12)C(=O)Nc1ccncc1)c1ccc(N2CCN(c3ccc(F)cc3F)CC2)cc1F  concentration (Swiss Webster mouse, female, brain; oral, 50 mg/kg, 2 h, 20% HPβCD vehicle): 140 nM
CC(C)(C(=O)N1CCOc2c(C#N)cncc2C1)C(F)F  subjects with cardiac disorder TEAE (human, both sexes; oral, 20 mg single dose): 16.7%
N=C(N)NCCNC(=O)C1(Nc2ccccc2)CCN(Cc2ccccc2)CC1  mean residence time (Sprague-Dawley rats, both sexes, plasma; intravenous, 2.5 mg/kg, mean of both sexes): 0.1 h
COc1ncc(-c2nc3c(n2C(C)C)[C@H](c2ccc(Cl)cc2)N(c2cc(Cl)cn(C)c2=O)C3=O)c(OC)n1  geometric mean Cmax (human patients, plasma; oral, 45 mg, cycle 1 day 1, low-dose): 425 ng/mL
C[C@H](CCC(=O)NCC(=O)O)[C@H]1CC[C@H]2[C@@H]3CC[C@@H]4C[C@H](O)CC[C@]4(C)[C@H]3CC[C@]12C  relative peak deviation (human, plasma; endogenous control diurnal; relative to: daily mean concentration): 147 ± 20%
Cc1ccc(Sc2ccccc2N2CCNCC2)c(C)c1  eczema incidence (healthy adult men; oral, 5 mg single dose, treatment-emergent adverse events): 0%
O=C1CCc2ccc(OCCCCN3CCN(c4cccc(Cl)c4Cl)CC3)cc2N1  adverse event incidence (refers to: Hypertension; patients, CYP2D6 ultrarapid metabolizers; dose not given, long-acting oral or depot): 25%
CN1C[C@H](COc2nccc3c(NCc4ccco4)cc(Cl)nc23)OC1=O  PR interval (rabbit NZW female, isolated Langendorff heart; 3 µM, 15 min): 65 ms
CO[C@H]1C[C@@H]2CC[C@@H](C)[C@@](O)(O2)C(=O)C(=O)N2CCCC[C@H]2C(=O)O[C@H]([C@H](C)C[C@@H]2CC[C@@H](OC(=O)NCCOCCOCCOCCOCCOCCOCCOCCOCCC(=O)N3CCc4cc(Cn5nc(-c6ccc7oc(N)nc7c6)c6c(N)ncnc65)ccc4C3)[C@H](OC)C2)C[C@@H](O)[C@H](C)/C=C(\C)[C@@H](O)[C@@H](OC)C(=O)[C@H](C)C[C@H](C)/C=C/C=C/C=C/1C  unbound AUClast (human patients, plasma; intravenous, 8 mg, cycle 1 day 15): 0.0265 µM·h
CCN1CCN(Cc2ccc(NC(=O)c3ccc(C)c(NC(=O)c4cncc(-c5cccs5)c4)c3)cc2C(F)(F)F)CC1  mean plasma concentration (LC-MS/MS; C57BL/6 mouse, plasma; intraperitoneal, 15 mg/kg single dose, 2 h): 238 ng/mL
CO[C@@H]1[C@H](OC(=O)N2CC(CCN3CCOCC3)C2)CC[C@]2(CO2)[C@H]1[C@@]1(C)O[C@@H]1CC=C(C)C  D-dimer change (human; dose not given, day 28, multiple ascending dose; relative to: baseline): -0.04 ± 0.06 mg/dL
CN1CC[C@@H](NC(=O)Nc2ccc(C#N)cc2)C[C@@H]1c1nc2ccccc2[nH]1  ΔΔQTcF concentration slope (linear mixed-effects model; healthy volunteers, plasma; oral; relative to: placebo): 0.005 ms per ng/mL
OC[C@H]1O[C@@H](c2ccc(Cl)c(Cc3ccc(O[C@H]4CCOC4)cc3)c2)[C@H](O)[C@@H](O)[C@@H]1O  change in Chloride (Japanese type 1 diabetes patients, blood; 10 mg, day 28; relative to: baseline): 1 mEq/L
C[C@H]1CN(C(=O)CC#N)[C@]12CCN(c1ncnc3[nH]ccc13)C2  subjects with Arthralgia (healthy human; oral, 3 mg single): 12.5%
Cc1cc(NC2CCN(C(=O)OC3CCN(C(=O)/C=C/CN(C)C)C3)CC2)n2ncc(C(C)C)c2n1 (stereo not shown)  patients with TEAE (CTCAE v4.0, refers to: Dyspepsia; patients with advanced solid tumours; oral, dose not given, TIW, grade 3 or higher): 0%
C=CC(=O)Nc1cc(Nc2nccc(-c3cn(C4CC4)c4ccccc34)n2)c(OC)cc1N(C)CCN(C)C  MCV (BALB/c nude mouse, LU0387 xenograft, blood; oral, 40 mg/kg): 45.72 ± 0.323 fL
Cc1cc(-c2nnc(N)nc2-c2ccc(F)cc2)cc(Cl)n1  patients with immune-mediated AE (refers to: hypothyroidism; post-IO other solid tumour patients; oral, 100 mg once daily, treatment-related, grade 1): 0%
